Results gathered from unrelated publications.
Compare with care: the assays were run in different laboratories.

Compound | test system | conditions | half-life [h]
CC(=Nc1ccc(N)cc1)N(C)C | male Sprague-Dawley rat, plasma | oral, 200 mg/kg | 6.54
Cc1[nH]nc2c1N=C(c1ccccc1Cl)c1cnc(N3CCOCC3)cc1N2 | male Sprague-Dawley rat, plasma | intravenous, 1 mg/kg | 3.6
COC(=O)C1=CNC=C(C(=O)OC)C1c1ccc(F)c(C(F)(F)F)c1 | male Sprague-Dawley rat, plasma | oral, 50 mg/kg | 4
O=C(O)c1c(O)cc(O[C@@H]2O[C@H](CO)[C@@H](O)[C@H](O)[C@H]2O)cc1/C=C/c1ccccc1 | male Sprague-Dawley rat, plasma | oral, 5 mg/kg | 0.63
OC1(C(F)(F)F)CCN(c2nc(Nc3ccnc(C(F)(F)F)c3)nc(-c3cccc(C(F)(F)F)n3)n2)C1 (centres unmarked) | Sprague-Dawley rat, plasma | oral, 10 mg/kg | 13.8
CNC(=O)C1CCCN(C(=O)C2CC3CCC2N3C(=O)[C@@H]2C[C@@H](O)CN2C(=O)NCc2cccc(Cl)c2F)C1 (mixture of isomers) | rat, plasma | oral, 8 mg/kg | 7.31
COC1C(c2ccc(Cl)c(Cc3ccc(OC4CCOC4)cc3)c2)OC(CO)C(O)C1O (centres unmarked) | Sprague-Dawley rat, plasma | oral, 5 mg/kg | 1.87
CN1CCC[C@@H]1C(=O)N[C@@H](Cc1ccc(-c2ccccc2)cc1)B(O)O | male Sprague-Dawley rat, plasma | oral, 1 mg/kg | 4
CC1(C)C(NC(=O)C(=NOC2(C(=O)O)CC2)c2csc(N)n2)C(=O)N1OS(=O)(=O)O (centres unmarked) | rat, plasma | intravenous, 10 mg/kg, single dose | 0.65
OCC1OC(n2cnc3c(NCc4ccc(Br)s4)ncnc32)C(O)C1O (centres unmarked) | male Sprague-Dawley rat, blood | intravenous, 6 mg/kg | 2.1 to 4
CCC(CC)n1c(Cc2cccs2)nc2cc(C(=O)N[C@@H](CC(=O)O)c3ccccc3)ccc21 | male Sprague-Dawley rat, plasma | intraperitoneal, 10 mg/kg | 2.47
C=C(NC(=O)c1csc(-c2nc3c(cc2O)-c2nc(cs2)C(=O)NC(C(C)O)C(=O)NC(=C(C)OC)c2nc(cs2)C(=O)NC2c4nc(cs4)C(=O)NC(COC(=O)c4c5c6c(cccc6n4O)COC(=O)C(OC4CC(C)(O)C(N(C)C)C(C)O4)C2OC5)c2nc-3cs2)n1)C(N)=O (centres unmarked) | female Sprague-Dawley rat, plasma | intravenous, 2 mg/kg, single dose, infusion | 1.98
CCCN(C)c1cc(C(F)(F)F)nc(SCCC(=O)NCc2ccco2)n1 | male Wistar rat, plasma | intraperitoneal, 25 mg/kg, single dose | 1.08
Cc1cc2c(cc1O)C=C1C=CC(=O)C(C)(C)[C@H]1CC2 | male Sprague-Dawley rat, plasma | intravenous, 2 mg/kg | 0.75
C/C(N)=N/C(=N\S(=O)(=O)c1ccc(C(F)(F)F)cc1)N1C[C@H](c2ccccc2)C(c2ccc(Cl)cc2)=N1 | male Sprague-Dawley rat, plasma | intravenous, 3 mg/kg | 6.8
COc1cc(-c2cc(=O)c3ccc(OCCCn4c(Cl)nc5ccccc54)cc3o2)cc(OC)c1OC | male Sprague-Dawley rat, plasma | intravenous, 10 mg/kg | 2.98
O=c1c(-c2ccc(Cl)c(CN3CCOCC3)c2)coc2cc(O)ccc12 | male Sprague-Dawley rat, plasma | oral, 10 mg/kg | 4.07
O=C(C1CCN(c2nnnn2-c2ccccc2)CC1)N1CCCc2ccccc21 | male Sprague-Dawley rat, plasma | intravenous, 1 mg/kg | 1.49
CCC(CC)n1c(Cc2ccco2)nc2cc(C(=O)N[C@@H](CC(=O)O)c3ccccc3)ccc21 | male Sprague-Dawley rat, plasma | intravenous, 1 mg/kg | 2.31
COCCN(C)CC(=O)NC(Cc1ccc(-c2ccccc2)cc1)B(O)O (centres unmarked) | rat, plasma | oral, 1 mg/kg | 3.7

For quick reference, copied from above:
Compound | test system | conditions | half-life [h]
COC(=O)C1=CNC=C(C(=O)OC)C1c1ccc(F)c(C(F)(F)F)c1 | male Sprague-Dawley rat, plasma | oral, 50 mg/kg | 4
COCCN(C)CC(=O)NC(Cc1ccc(-c2ccccc2)cc1)B(O)O (centres unmarked) | rat, plasma | oral, 1 mg/kg | 3.7
Cc1[nH]nc2c1N=C(c1ccccc1Cl)c1cnc(N3CCOCC3)cc1N2 | male Sprague-Dawley rat, plasma | intravenous, 1 mg/kg | 3.6
